Results collected from several papers.
Each line is one published result; not all experiments were run side by side. ± gives the spread as reported.

CC(=O)N[C@@H](Cc1ccc(O)cc1)C(=O)N[C@H](C(=O)N[C@@H](C)C(=O)N[C@@H](CC(=O)O)C(=O)Nc1ccc2c(C)cc(=O)oc2c1)C(C)C  Vmax (Caspase-4 (CASP4, Homo sapiens, UniProt P49662); substrate cleavage, substrate, fluorogenic AMC release; enzyme 0.25 activity units/µL): 1670 ± 190 RFU/min
CC(=O)[C@@]1(O)CC[C@H]2[C@@H]3CCC4=CC(=O)CC[C@]4(C)[C@H]3CC[C@@]21C  cAMP level (ADGRG6 (Homo sapiens, UniProt Q86SQ4); inhibitor; concentration not given, together with: forskolin): inhibited
CCC1CC2C(C)=CC3C(=O)CCCC3C=CC(C)=CC2C(=O)O1 (centres unmarked)  R3 tau oligomer reduction (Microtubule-associated protein tau, R3 peptide oligomers (MAPT, Homo sapiens, UniProt P10636); dot blot; 500 µM): 48.3%
O=C(c1cc2c(s1)CCCCC2)N1CCC(n2c(=O)[nH]c3ccccc32)CC1  maximal current density (Trpc6 (Mus musculus, UniProt Q61143, E671C); ion current, agonist, whole-cell patch clamp; 100 µM, E671C mutant): 27.4 ± 4.69 pA/pF
COc1ccc(-c2nc(CN3CCN(C(=O)c4ccc(C(C)(C)C)cc4)CC3)no2)cc1  current fold increase (KCNQ2 (Homo sapiens, UniProt O43526); potassium current, activator, whole-cell patch clamp; CHO, stable; 20 µM; relative to: current before compound): 1.11 ± 0.06
NC(=O)CN1C(=O)C(O)(CC(=O)c2cccc(N)c2)c2ccccc21 (centres unmarked)  ΔG (uncharacterized protein (Leishmania donovani, UniProt A0A3Q8IA09); competitive ITC; together with: aspartate 60 µM): -7.49 kcal/mol
Nc1nc2c(ncn2[C@H]2C[C@H](O)[C@@H](COP(=O)(O)OP(=O)(O)[C@H](F)P(=O)(O)O)O2)c(=O)[nH]1  stereospecificity increase (DNA polymerase beta (POLB, Homo sapiens, UniProt P06746, R183A); pre-steady-state kinetics; opposite dC; relative to: mutant over wild type): ~1.5 fold
Oc1c(C(Nc2nccs2)c2cccc(OCc3ccccc3)c2)ccc2cccnc12 (centres unmarked)  Hill slope (Genome polyprotein, NS2B-NS3 protease (Dengue virus type 2, UniProt P14340); enzyme activity, inhibitor; 0.1% CHAPS, together with: Bz-Nle-Lys-Arg-Arg-AMC substrate): 1.27 ± 0.06
CC(C)C[C@@H](CN[C@@H](Cc1ccc(Cl)cc1)C(N)=O)NC(=O)[C@H](Cc1c[nH]cn1)NC(=O)CNC(=O)[C@@H](NC(=O)[C@H](C)NC(=O)[C@H](Cc1c[nH]c2ccccc12)NC(=O)[C@H](CCC(N)=O)NC(=O)[C@H](N)Cc1ccccc1)C(C)C  activity class (NMBR (Homo sapiens, UniProt P28336); IP release; NCI-H1299; up to 10 µM): inactive
NNC(=O)CCn1c2ccc(Cl)cc2c2cc(Cl)ccc21  activity (Kcnk2 (Mus musculus, UniProt P97438); potassium current, two-electrode voltage clamp; Xenopus oocytes; 500 µM): inactive
Cn1cncn1.[Ru+2].c1cc(-c2ccc3ccccc3n2)nc(-c2ccc3ccccc3n2)c1.c1ccc2cc3nc4c5cccnc5c5ncccc5c4nc3cc2c1  kinact/KI (Procathepsin L (CTSL, Homo sapiens, UniProt P07711); irreversible inhibitor; pH 5.5, dark, together with: Z-Phe-Arg-AMC): < 10 M⁻¹ s⁻¹
Cc1cn([C@H]2C[C@H](O)[C@@H](COP(=O)(O)OP(=O)(O)C(Br)(Br)P(=O)(O)O)O2)c(=O)[nH]c1=O  kpol/Kd (DNA polymerase beta (POLB, Homo sapiens, UniProt P06746, I260M); substrate, single turnover kinetics): 4300 ± 1100 M⁻¹ s⁻¹
COc1ccc(-c2cc(C(F)(F)F)nc(SCC(=O)N(C)c3ccccc3)n2)cc1OC  cooperativity factor beta (Secretin receptor (SCTR, Homo sapiens, UniProt P47872); efficacy cooperativity, allosteric modulator; cells overexpressing SCTR; together with: secretin(3-27)): 0.3
N#Cc1cc(C(=O)OCC[18F])c(C(F)(F)F)nc1N1CCN(C(=O)Cc2ccccc2)CC1  target to normal ratio (P2Y purinoceptor 12 (P2ry12, Mus musculus, UniProt Q9CPV9); PET; mouse, acute kainate epilepsy, ipsilateral hippocampus; 60 min): 1.81 ± 0.22

For quick reference, copied from above:
CC(C)C[C@@H](CN[C@@H](Cc1ccc(Cl)cc1)C(N)=O)NC(=O)[C@H](Cc1c[nH]cn1)NC(=O)CNC(=O)[C@@H](NC(=O)[C@H](C)NC(=O)[C@H](Cc1c[nH]c2ccccc12)NC(=O)[C@H](CCC(N)=O)NC(=O)[C@H](N)Cc1ccccc1)C(C)C  activity class (NMBR (Homo sapiens, UniProt P28336); IP release; NCI-H1299; up to 10 µM): inactive
